Results collected from several papers.
Every numbered part comes from another study and shows a few of its results, in no order.
UniProt Q96SB4, sequence (whole entry, looked up): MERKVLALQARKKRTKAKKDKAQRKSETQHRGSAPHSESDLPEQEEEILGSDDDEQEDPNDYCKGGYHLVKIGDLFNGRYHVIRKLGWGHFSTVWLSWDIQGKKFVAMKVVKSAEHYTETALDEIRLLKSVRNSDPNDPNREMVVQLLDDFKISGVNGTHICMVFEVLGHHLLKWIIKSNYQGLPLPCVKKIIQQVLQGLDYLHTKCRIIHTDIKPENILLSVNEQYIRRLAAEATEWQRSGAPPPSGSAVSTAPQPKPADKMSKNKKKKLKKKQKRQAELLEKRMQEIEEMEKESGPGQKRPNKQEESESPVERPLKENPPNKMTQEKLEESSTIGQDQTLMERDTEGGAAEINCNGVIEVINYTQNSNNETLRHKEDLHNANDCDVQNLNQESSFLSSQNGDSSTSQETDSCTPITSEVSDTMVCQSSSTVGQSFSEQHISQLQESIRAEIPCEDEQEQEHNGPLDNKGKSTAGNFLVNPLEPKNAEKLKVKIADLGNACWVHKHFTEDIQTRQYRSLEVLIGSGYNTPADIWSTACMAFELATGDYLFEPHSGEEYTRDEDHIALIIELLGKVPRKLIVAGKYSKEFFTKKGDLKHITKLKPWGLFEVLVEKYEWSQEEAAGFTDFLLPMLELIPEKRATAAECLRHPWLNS
UniProt Q00526, sequence (whole entry, looked up): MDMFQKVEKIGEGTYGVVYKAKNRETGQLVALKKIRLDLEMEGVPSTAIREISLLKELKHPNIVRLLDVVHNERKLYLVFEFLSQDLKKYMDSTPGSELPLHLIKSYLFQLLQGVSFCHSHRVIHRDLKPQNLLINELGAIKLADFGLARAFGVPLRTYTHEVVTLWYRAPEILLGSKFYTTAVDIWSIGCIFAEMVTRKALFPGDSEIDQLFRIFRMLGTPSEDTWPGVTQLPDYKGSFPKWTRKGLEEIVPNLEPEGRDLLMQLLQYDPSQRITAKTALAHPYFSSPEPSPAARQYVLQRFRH
UniProt Q15349, sequence (whole entry, looked up): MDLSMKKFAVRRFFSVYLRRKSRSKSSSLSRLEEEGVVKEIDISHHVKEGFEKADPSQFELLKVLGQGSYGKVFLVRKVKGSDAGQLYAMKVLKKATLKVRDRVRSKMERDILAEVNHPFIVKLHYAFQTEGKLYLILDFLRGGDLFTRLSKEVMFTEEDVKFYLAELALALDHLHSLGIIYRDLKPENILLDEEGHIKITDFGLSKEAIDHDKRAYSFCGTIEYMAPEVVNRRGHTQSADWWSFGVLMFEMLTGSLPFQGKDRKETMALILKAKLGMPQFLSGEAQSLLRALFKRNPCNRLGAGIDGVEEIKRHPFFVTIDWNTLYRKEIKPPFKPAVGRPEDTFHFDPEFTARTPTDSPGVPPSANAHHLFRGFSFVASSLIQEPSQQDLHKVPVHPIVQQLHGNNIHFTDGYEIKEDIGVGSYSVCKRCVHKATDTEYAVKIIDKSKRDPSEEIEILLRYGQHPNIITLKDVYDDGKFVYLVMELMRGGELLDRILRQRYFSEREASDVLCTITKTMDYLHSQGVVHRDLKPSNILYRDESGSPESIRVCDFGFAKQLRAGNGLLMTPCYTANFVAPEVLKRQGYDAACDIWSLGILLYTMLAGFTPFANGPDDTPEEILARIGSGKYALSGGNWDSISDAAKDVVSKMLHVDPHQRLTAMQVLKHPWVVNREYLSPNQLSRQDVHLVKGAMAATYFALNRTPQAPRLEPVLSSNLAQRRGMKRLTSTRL
UniProt Q9HAZ1, sequence (whole entry, looked up): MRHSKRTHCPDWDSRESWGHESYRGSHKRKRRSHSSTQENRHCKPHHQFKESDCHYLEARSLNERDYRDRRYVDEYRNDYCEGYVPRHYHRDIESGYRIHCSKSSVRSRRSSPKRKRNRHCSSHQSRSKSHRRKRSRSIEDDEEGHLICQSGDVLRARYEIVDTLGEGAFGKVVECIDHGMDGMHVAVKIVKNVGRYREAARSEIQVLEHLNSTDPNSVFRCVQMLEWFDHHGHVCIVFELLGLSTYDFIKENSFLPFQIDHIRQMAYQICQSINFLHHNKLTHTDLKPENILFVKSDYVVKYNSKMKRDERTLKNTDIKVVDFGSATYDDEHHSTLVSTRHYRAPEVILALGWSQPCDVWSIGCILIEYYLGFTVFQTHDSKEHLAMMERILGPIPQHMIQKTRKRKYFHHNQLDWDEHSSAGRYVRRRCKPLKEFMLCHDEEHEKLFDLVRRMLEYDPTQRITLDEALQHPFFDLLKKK
UniProt Q9UL54, sequence (whole entry, looked up): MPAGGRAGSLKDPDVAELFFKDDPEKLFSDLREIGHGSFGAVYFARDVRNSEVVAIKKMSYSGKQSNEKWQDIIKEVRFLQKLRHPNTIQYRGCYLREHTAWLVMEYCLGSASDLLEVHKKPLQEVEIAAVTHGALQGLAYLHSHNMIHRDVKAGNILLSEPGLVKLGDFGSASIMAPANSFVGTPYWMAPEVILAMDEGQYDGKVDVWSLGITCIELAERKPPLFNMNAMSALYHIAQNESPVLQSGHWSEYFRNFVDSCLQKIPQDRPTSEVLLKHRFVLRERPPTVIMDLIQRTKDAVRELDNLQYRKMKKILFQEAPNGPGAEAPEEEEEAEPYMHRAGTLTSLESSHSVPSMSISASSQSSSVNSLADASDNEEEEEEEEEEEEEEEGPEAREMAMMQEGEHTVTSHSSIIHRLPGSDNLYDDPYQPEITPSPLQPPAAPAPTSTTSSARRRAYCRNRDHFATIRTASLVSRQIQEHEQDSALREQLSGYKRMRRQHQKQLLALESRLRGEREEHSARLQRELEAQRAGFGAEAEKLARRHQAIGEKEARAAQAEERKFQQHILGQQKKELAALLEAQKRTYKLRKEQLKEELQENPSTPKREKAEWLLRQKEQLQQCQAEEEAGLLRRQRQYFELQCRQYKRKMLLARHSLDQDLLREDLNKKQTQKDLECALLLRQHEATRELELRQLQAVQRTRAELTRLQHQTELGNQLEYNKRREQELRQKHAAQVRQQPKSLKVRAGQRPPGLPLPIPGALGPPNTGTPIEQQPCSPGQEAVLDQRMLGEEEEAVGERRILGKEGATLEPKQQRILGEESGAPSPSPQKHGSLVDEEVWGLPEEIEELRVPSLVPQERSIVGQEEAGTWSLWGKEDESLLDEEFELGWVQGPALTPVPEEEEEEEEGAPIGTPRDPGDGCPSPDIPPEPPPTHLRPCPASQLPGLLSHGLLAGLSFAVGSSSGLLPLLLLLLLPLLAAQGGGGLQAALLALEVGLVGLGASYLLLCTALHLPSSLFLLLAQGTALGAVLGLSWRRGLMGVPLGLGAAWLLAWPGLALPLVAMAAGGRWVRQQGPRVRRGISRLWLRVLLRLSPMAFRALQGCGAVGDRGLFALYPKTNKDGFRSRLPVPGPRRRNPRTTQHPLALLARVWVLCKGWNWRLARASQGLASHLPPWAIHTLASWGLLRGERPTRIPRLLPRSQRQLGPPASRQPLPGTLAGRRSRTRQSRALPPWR
UniProt P49674, sequence (whole entry, looked up): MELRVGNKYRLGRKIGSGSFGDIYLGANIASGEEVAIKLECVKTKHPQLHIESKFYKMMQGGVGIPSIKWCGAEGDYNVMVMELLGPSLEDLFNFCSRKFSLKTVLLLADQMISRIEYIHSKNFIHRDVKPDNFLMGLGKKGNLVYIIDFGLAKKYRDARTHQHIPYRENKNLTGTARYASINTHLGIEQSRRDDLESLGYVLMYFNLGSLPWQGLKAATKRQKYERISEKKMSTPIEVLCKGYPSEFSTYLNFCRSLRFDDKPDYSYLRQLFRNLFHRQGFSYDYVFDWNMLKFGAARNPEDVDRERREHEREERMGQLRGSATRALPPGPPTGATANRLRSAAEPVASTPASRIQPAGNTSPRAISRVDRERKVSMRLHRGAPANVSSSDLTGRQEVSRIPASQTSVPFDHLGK
UniProt P31152, sequence (whole entry, looked up): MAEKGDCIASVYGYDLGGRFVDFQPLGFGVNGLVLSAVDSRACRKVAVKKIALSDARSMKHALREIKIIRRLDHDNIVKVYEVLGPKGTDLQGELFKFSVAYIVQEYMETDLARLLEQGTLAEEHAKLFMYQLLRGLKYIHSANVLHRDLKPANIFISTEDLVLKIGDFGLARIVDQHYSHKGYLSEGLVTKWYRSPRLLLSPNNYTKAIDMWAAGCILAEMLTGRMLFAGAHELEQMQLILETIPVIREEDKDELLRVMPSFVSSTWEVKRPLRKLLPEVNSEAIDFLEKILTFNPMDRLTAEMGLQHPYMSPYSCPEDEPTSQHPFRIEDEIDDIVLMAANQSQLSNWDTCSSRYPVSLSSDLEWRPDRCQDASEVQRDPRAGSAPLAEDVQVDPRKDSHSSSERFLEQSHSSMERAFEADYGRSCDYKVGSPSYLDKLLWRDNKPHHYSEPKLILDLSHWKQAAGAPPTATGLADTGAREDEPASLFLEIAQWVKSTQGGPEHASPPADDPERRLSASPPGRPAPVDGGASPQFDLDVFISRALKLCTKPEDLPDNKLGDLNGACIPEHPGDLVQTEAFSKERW

Study 1 — read-out: enzyme activity; action: inhibitor; tested at: 0.5 µM; baseline: control
Target: Serine/threonine-protein kinase PAK 2 (PAK2, Homo sapiens, UniProt Q13177)
UniProt Q13177, sequence (whole entry, looked up): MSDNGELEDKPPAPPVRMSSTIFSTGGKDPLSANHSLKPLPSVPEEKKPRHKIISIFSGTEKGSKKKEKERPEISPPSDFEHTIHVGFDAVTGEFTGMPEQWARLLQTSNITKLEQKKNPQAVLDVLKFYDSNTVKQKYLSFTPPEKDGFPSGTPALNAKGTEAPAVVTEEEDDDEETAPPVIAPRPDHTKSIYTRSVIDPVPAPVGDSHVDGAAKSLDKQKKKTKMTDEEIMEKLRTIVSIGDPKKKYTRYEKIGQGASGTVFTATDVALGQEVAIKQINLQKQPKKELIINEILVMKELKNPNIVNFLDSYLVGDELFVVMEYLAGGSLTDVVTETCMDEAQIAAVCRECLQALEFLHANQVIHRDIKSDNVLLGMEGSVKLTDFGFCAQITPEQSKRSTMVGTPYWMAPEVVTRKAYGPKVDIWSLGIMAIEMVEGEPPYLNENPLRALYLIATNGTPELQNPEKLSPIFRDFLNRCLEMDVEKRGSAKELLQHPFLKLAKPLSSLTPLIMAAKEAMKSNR
Structure (SMILES)	remaining activity [%]
NC(=O)c1ccc(N(C(N)=O)c2c(F)cccc2F)nc1-c1ccc(F)cc1F	101
N#CC(=C(N)Sc1ccc(N)cc1)c1ccccc1C(F)(F)F	98
CCc1[nH]c(-c2ccc(OC)cc2)nc1-c1ccncc1	90.7
Nc1ncnc2c1cnn2-c1ccccc1	98.1
O=C1NC(=O)C(c2c[nH]c3ccccc23)=C1c1c[nH]c2ccccc12	97
CC(=O)c1ccc(N2CCOCC2)cc1O	98.8
Cc1cncc2cccc(S(=O)(=O)N3CCCN(C(=O)CN)C[C@@H]3C)c12	99.7
Cc1cc(Nc2nc(-c3ccccc3)nc3ccccc23)n[nH]1	91.8
Oc1ccc(Nc2nc(-c3ccc(Cl)cc3)cs2)cc1	87
COc1ccc(S(=O)(=O)N(CCO)c2ccccc2CN(C)CC=Cc2ccc(Cl)cc2)cc1	101
CC#CC(=O)Nc1cc2c(Nc3ccc(F)c(Cl)c3)ncnc2cn1	105
CSc1nc(-c2ccnc(N[C@@H](C)c3ccccc3)c2)c(-c2ccc(F)cc2)[nH]1 (racemic)	104
Cc1ccc(NC2=CC(=O)c3sc(C)nc3C2=O)cc1	104
CC(C)(C)n1nc(Cc2cccc3ccccc23)c2c(N)ncnc21	94.7
O=C1Cc2c([nH]c3ccc([N+](=O)[O-])cc23)-c2ccccc2N1	41
Nc1nccc(-c2c(-c3ccc(F)cc3)ncn2C2CCNCC2)n1	76.9
Fc1ccc(-c2nc3n(c2-c2ccncc2)CCS3)cc1	84.7
CC[n+]1c(/C=C/N(C)c2ccccc2)n(-c2ccccc2)c2ccc(-c3nc4ccccc4s3)cc21	97.3
O=S(=O)(NCCNC/C=C/c1ccc(Br)cc1)c1cccc2cnccc12	78.6

Study 2 — species: mouse; medium: microsomes or S9; tested at: 2 µM; time: 0.5 h
SMILES	remaining compound [%]
CC(C)(C)OC(=O)NC1CCN(c2nccn3c(=O)[nH]nc23)CC1	29.4
CN(C(=O)CN1C(=O)COc2cc(Cl)c(Cl)cc21)C(CN1CCCC1)c1ccc(-c2ncccn2)cc1 (stereo not drawn)	> 100
Cc1ccc(NC(=O)C(Cc2cccc(C)c2)c2nnn[nH]2)cc1 (stereo not drawn)	71
COc1c(C(C)(C)C)cc(C(=O)COc2ccc(O)cc2)c(O)c1I	28.2
COc1ccccc1N1C[C@@H]2C[C@@H](c3nccn3-c3cccc(C)c3)N3CCC[C@@]23C1=O	27.6
CC(C)Oc1nnc(SCc2nc3c(=O)n(C)c(=O)n(C)c3[nH]2)s1	59.1
Cc1cc(Br)cc(C)c1NCc1nccn1CC(=O)NC(N)=O	38.7
CCn1c(=O)n(Cc2cc(-c3ccccc3)no2)c2ccccc21	0.864
COC(=O)c1ccc(C)c(NC(=O)CN(C)Cc2ccc(Cl)s2)c1	2.2
Cc1csc(N2N=C(c3ccccc3)CC2c2ccccc2C)n1 (stereo not drawn)	0.0648
Cc1cc(C)c2c(c1)C(Nc1ncc(S(N)(=O)=O)s1)CCO2 (stereo not drawn)	53.5
COC(=O)c1ccccc1NC(=O)CSc1nnnn1-c1ccc(OCc2ccccc2)cc1	0.355

Study 3 — medium: plasma; route: oral
SMILES: COc1ccc(-c2c(Nc3ccccn3)[nH]c3c(C4=CCCCC4)c(-c4ccccc4)nn3c2=O)cc1
technique	species	dose	time	setting	plasma concentration, mean
LC-MS/MS	human	50 mg once daily	4 h	cycle 1	1540 ng/mL
–	human patients	100 mg once daily	0 h	cycle 1	3600 ng/mL
–	cancer patients	400 mg	3 h post-dose	single dose	1100 ng/mL
–	cancer patients	200 mg	8 h post-dose	single dose	1410 ng/mL
–	cancer patients	100 mg	3 h post-dose	single dose	1160 ng/mL
–	cancer patients	200 mg	24 h post-dose	single dose	1050 ng/mL
–	cancer patients	400 mg	0.5 h post-dose	single dose	134 ng/mL
–	human patients	200 mg once daily	0 h	cycle 1	6560 ng/mL
–	cancer patients	50 mg	48 h post-dose	single dose	84.1 ng/mL
–	cancer patients	100 mg	72 h post-dose	single dose	253 ng/mL
–	cancer patients	400 mg	2 h post-dose	single dose	885 ng/mL

Study 4 — read-out: cell-free assay; technique: competition with immobilised ligand; tested at: 1 µM
Structure (SMILES): O=C(O)[C@@H]1[C@@H](Cn2nnc3ccccc3c2=O)CC[C@H]1C(=O)c1ccc(OCCC2CCOCC2)cc1
target	remaining binding
EGFR (Homo sapiens, UniProt P00533, L858R/T790M)	76%
CDK3 (Homo sapiens, UniProt Q00526)	100%
CLK4 (Homo sapiens, UniProt Q9HAZ1)	100%
TAOK2 (Homo sapiens, UniProt Q9UL54)	76%
ERBB4 (Homo sapiens, UniProt Q15303)	100%
WNK4 (Homo sapiens, UniProt Q96J92)	75%
Ribosomal protein S6 kinase alpha-2, N-terminal kinase domain (RPS6KA2, Homo sapiens, UniProt Q15349)	96%
CSNK1E (Homo sapiens, UniProt P49674)	90%
SRPK1 (Homo sapiens, UniProt Q96SB4)	100%
Tyrosine-protein kinase ABL1, phosphorylated (ABL1, Homo sapiens, UniProt P00519, Y253F)	100%
MET (Homo sapiens, UniProt P08581, Y1235D)	98%
MAPK4 (Homo sapiens, UniProt P31152)	100%

For quick reference, copied from above (study 4):
target	remaining binding
CSNK1E (Homo sapiens, UniProt P49674)	90%
MAPK4 (Homo sapiens, UniProt P31152)	100%
Tyrosine-protein kinase ABL1, phosphorylated (ABL1, Homo sapiens, UniProt P00519, Y253F)	100%
WNK4 (Homo sapiens, UniProt Q96J92)	75%
